Experimental data of several laboratories.
Each numbered part is a random draw from the data of one study; scales do not carry over between parts.
Chain of UniProt P78356 (whole entry, looked up): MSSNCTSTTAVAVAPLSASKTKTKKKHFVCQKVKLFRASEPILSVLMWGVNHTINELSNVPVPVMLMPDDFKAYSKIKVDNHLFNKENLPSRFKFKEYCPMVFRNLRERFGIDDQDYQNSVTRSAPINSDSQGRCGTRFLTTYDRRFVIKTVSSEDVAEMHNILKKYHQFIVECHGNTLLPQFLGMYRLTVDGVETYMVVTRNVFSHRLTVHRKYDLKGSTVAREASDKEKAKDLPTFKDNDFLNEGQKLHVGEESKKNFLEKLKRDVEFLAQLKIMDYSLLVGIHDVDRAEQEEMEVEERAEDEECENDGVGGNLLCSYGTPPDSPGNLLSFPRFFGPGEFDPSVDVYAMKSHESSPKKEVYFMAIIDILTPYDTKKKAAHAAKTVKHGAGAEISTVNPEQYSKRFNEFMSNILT
Chain of UniProt P14616 (whole entry, looked up): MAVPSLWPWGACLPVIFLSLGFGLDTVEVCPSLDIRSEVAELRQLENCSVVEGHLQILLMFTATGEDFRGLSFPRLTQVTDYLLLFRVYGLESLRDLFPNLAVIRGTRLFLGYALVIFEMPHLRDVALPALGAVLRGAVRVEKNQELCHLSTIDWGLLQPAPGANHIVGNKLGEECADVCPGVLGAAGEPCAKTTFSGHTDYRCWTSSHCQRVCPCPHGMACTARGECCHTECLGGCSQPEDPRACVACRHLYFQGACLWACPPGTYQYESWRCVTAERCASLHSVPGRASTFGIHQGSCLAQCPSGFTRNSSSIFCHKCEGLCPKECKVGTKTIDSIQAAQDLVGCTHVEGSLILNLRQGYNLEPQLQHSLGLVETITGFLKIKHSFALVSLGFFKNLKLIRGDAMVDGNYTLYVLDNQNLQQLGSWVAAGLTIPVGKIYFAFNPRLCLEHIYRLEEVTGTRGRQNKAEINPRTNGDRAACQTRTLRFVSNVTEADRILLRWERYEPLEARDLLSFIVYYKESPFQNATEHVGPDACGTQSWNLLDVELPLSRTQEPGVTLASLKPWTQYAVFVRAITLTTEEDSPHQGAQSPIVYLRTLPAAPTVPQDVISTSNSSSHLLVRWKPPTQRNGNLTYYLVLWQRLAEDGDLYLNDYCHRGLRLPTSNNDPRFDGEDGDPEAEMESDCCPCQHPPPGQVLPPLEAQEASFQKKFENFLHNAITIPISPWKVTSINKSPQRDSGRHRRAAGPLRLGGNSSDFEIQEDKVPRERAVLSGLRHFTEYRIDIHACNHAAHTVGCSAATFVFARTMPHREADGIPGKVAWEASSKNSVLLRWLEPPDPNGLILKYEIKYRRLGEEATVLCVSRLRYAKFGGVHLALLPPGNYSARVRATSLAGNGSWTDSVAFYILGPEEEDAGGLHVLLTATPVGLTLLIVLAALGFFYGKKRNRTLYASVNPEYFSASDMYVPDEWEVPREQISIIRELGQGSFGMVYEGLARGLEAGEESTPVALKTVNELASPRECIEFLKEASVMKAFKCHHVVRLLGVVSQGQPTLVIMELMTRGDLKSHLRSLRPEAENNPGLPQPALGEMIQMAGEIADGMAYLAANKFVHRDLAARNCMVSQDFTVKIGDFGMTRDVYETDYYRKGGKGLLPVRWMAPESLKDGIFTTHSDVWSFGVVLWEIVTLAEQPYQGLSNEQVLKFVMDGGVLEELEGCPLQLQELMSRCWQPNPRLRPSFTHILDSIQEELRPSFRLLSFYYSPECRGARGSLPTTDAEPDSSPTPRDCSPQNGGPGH
Chain of UniProt P57059 (whole entry, looked up): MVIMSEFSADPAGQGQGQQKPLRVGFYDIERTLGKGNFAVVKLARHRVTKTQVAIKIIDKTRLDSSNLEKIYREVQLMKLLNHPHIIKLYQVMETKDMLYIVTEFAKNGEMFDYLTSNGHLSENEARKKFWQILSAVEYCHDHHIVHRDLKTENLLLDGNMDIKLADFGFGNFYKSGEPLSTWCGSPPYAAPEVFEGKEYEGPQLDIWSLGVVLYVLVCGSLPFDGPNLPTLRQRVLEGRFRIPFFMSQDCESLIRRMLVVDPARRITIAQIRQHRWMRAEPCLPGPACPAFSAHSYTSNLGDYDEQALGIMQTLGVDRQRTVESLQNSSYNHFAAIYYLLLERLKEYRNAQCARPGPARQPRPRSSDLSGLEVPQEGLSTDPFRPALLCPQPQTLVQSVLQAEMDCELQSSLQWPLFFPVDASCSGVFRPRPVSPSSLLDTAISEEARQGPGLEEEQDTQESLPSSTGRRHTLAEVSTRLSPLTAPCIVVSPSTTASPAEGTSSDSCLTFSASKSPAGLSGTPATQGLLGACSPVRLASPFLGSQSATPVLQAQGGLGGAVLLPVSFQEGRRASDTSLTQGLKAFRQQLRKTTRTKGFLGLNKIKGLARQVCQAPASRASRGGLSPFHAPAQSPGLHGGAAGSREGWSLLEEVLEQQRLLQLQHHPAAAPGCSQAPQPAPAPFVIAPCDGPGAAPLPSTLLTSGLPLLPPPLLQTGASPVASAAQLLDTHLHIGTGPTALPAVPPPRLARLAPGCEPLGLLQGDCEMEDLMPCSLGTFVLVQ

Set 1 — method: protein binding microarray; form: double-stranded DNA, one strand shown; sample: in vitro; concentration: not given; relative to: not given; reading: higher = stronger binding
Target: Histone acetyltransferase KAT6A, both winged helices, GST fusion (KAT6A, Homo sapiens, UniProt Q92794, residues 1-181)
Setting: 8-mer, flanks averaged, mean of 2 arrays, mostly near background
Target sequence (chain): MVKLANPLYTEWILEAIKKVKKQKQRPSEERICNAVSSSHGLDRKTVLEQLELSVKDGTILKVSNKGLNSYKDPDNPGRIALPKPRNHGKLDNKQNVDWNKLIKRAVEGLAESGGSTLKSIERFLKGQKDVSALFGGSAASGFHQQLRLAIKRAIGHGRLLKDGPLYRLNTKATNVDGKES
Oligonucleotide | E-score
GTTCTAGA | -0.0679
ACACAAGT | -0.0726
CCCGTACG | 0.328
ATCATGAT | -0.18
CCGCTCGC | 0.305
AGGAGCTC | -0.125
CGTAGCAG | 0.0457
ATATGCTG | -0.0561

Set 2 — concentration: 1 µM
SMILES: CN(C)C(=O)Cn1cc(-c2nc([C@@](C)(c3ccc(-c4cnc(N)nc4)cc3)C3CC3)no2)cn1
target | assay | remaining binding
Serine/threonine-protein kinase SIK1 (SIK1, Homo sapiens, UniProt P57059) | competition binding | 52%
Insulin receptor-related protein (INSRR, Homo sapiens, UniProt P14616) | cell-free assay, competition with immobilised ligand | 99%
Phosphatidylinositol 5-phosphate 4-kinase type-2 beta (PIP4K2B, Homo sapiens, UniProt P78356) | cell-free assay, competition with immobilised ligand | 100%

Set 3 — method: universal PBM; form: double-stranded DNA, one strand shown; sample: in vitro; concentration: not given; reading: higher = stronger binding
Target: Sal-like protein 4, full length isoform B (SALL4, Homo sapiens, UniProt Q9UJQ4-2, residues 1-616)
Setting: 8-mer, flanks averaged, mean of replicates
Oligonucleotide | E-score
GATCAAAC | -0.0329
CAGTCTAC | -0.0208
TCCGAGAA | 0.0265
CAGACCCG | -0.294
AGCTCGGA | -0.314
CGGGTAAG | -0.252
CAGCTATG | 0.137
AATCAGAA | 0.0251

Other studies, line by line
Structure (SMILES) | target or system | test system | conditions | measurement | result
Clc1ccc(CCN2CCN(Cc3nc[nH]n3)CC2)cc1Cl |  | human, microsomes or S9 | 2 µM, 0.5 h | remaining compound | 95.1%
O=C(O[C@H]1C[N+]2(CCCOc3ccccc3)CCC1CC2)C(O)(c1cccs1)c1cccs1 | A-375 |  | 100 µM, 36 h | viability | 98.7%
CCOC(=O)[C@@H]1CSCC(=O)N[C@@H](CC)C(=O)N(C)[C@@H](C)C(=O)N[C@H](CC(C)C)C(=O)N2CCC[C@@H]2C(=O)N(CC)CC(=O)N[C@H](CC(C)C)C(=O)N(C)[C@@H](C)C(=O)N[C@@H](CC(C)C)C(=O)N1C |  | hydrocarbon/water |  | logD | 0.886
O=C(NC1CCCc2ccccc21)c1ccc(CS(=O)(=O)c2ccc(Br)cc2)o1 (centres unmarked) |  | human, microsomes or S9 | 2 µM, 0.5 h | remaining compound | 26.8%

A few entries again (other studies, line by line):
Structure (SMILES) | target or system | test system | conditions | measurement | result
CCOC(=O)[C@@H]1CSCC(=O)N[C@@H](CC)C(=O)N(C)[C@@H](C)C(=O)N[C@H](CC(C)C)C(=O)N2CCC[C@@H]2C(=O)N(CC)CC(=O)N[C@H](CC(C)C)C(=O)N(C)[C@@H](C)C(=O)N[C@@H](CC(C)C)C(=O)N1C |  | hydrocarbon/water |  | logD | 0.886
O=C(NC1CCCc2ccccc21)c1ccc(CS(=O)(=O)c2ccc(Br)cc2)o1 (centres unmarked) |  | human, microsomes or S9 | 2 µM, 0.5 h | remaining compound | 26.8%
